Assay results pooled from the literature.
Each line is one published result; not all experiments were run side by side. ± marks the error that the study gave.

Structure (SMILES)	assay	system	conditions	how to read	quantity	value
Cn1c(=O)c(=O)n(C)c2cc(S(=O)(=O)NNC(=S)Nc3ccccc3)ccc21	IPGTT	HFD/STZ diabetic male albino mice	10 mg/kg, 2 h	–	blood glucose	116 ± 2.85 mg/dL
O=C(O)CNC(=O)CNC(=O)[C@@H]1CCCN1C(=O)[C@@H]1CCCN1	diketopiperazine formation, transition state theory	1-propanol	70, 80, 90 °C, 0.5% acetic acid	–	ΔS‡ at 298.15 K	-69 ± 1 J/(mol·K)
NC(=S)N/N=C1\c2ccccc2-c2nc3cc(F)ccc3nc21	–	mice with STZ-induced diabetes	oral, 25 mg/kg, 288 h, day 12	–	blood glucose	388 ± 82.7 mg/dL
Cc1ccc(C(=O)Nc2ccc(CP(=O)(O)O)cc2CP(=O)(O)O)cc1NC(=O)c1cccc(NC(=O)Nc2cccc(C(=O)Nc3cc(C(=O)Nc4ccc(CP(=O)(O)O)cc4CP(=O)(O)O)ccc3C)c2)c1	–	human plasma	329 µM	–	PT	14.7 ± 1.3 s
CN1CCC[C@]1(C)/C=C/S(=O)(=O)NC(=O)Nc1c2c(cc3c1CCC3)CCC2	item: IL-1β	human, whole blood ex vivo	oral, dose not given, multiple ascending dose, with: LPS and ATP	–	inhibition	> 90%
CCCCCCCCCCCCCCc1sc(NC(=O)CCN2CCC(O)CC2)nc1-c1ccccc1	paw oedema	mouse	intraperitoneal, 200 µmol/kg	–	inhibition in vivo	32.2%
COc1cc(CN2CCN(c3ccccc3Cl)CC2)c2cc3[n+](cc2c1O)CCc1cc2c(cc1-3)OCO2	ferric reducing power, FRAP	–	10 µg/mL, 30 min	higher is greater reducing power	FRAP absorbance	1.91 ± 0.57 a.u.
Cc1csc(NC(=O)CN2CCC(O)CC2)n1	Fe3+/ascorbic acid system	–	concentration not given, 30 min, 37 °C, with: DMSO 33 mM	–	hydroxyl radical scavenging	100%
FC(F)(F)c1ccccc1/N=c1\oc2ccccc2cc1-c1ccccc1	–	rat, formalin paw oedema	intraperitoneal, 10 mg/kg, 4 h	–	oedema reduction	42.7 ± 1.6%
NCC(=O)N1CCC[C@H]1C(=O)NCC(=O)NCC(=O)O	diketopiperazine formation, transition state theory	1-propanol	concentration not given, 70, 80, 90 °C, 0.5% acetic acid	–	enthalpy of activation	76 ± 8 kJ/mol
COc1ccc(C2CC(c3ccc(C)cc3)=Nc3ccccc3S2)cc1OC (stereo not drawn)	–	rat, normal, overnight fasted	oral, 20 mg/kg, 90 min, oral glucose tolerance test, with: glucose 3 g/kg oral	–	blood glucose	109 ± 4.11 mg/dL
CO[C@@H](C[C@H]1C(C)=CC[C@@H]2[C@]3(C)C[C@H](O[C@@H]4O[C@@H](C)[C@H](OC(=O)c5cccc(O)c5)[C@@H](O[C@@H]5O[C@H](CO)[C@@H](O)[C@H](O)[C@H]5NC(C)=O)[C@H]4O)[C@@H](O)C(C)(C)[C@H]3CC[C@]21C)[C@H](N)C(=O)O	mixed lymphocyte reaction	mouse	–	relative to: cyclosporin	potency ratio	~3
C=CCC1C(=O)C=C(OC)C2(OC)C(C)C(c3ccc4c(c3)OCO4)OC12 (single isomer, unassigned; (-))	item: IL-6, IL-1β, iNOS, COX-2	mouse, bile duct ligation, liver	dose not given	–	mRNA level	decreased
Oc1ccc2nc1CNCCNCCNC2	pH-potentiometric titration	–	298 K, I 0.15 M NaCl, with: Ca2+	–	log beta MHL	13
CC[C@H]1[C@@H](O)[C@@H]2[C@H](CC[C@]3(C)[C@@H]([C@H](C)CCOS(=O)(=O)[O-])CC[C@@H]23)[C@@]2(C)CC[C@@H](O)C[C@@H]12.[Na+]	–	ob/ob NASH mouse model, plasma	oral, 10 mg/kg once daily, before treatment, baseline of 8 week study	–	AST activity	359 ± 15.6 U/L
N[C@@H](Cc1ccccc1)C(=O)N1CCC[C@H]1C(=O)NCC(=O)NCC(=O)O	diketopiperazine formation, transition state theory	1-propanol	concentration not given, 70, 80, 90 °C, 0.5% acetic acid	–	enthalpy of activation	88 ± 8 kJ/mol
COc1ccc2c(c1)c(CC(=O)OCC(=O)c1ccccc1)c(C)n2C(=O)c1ccc(Cl)cc1	hot plate test	BALB/c mice	75 mg/kg, 30 min	–	latency of nociceptive response	13.9 ± 1.32 s
CC(=O)[O-].O.[Cu+2].[O-]c1ccc(Br)cc1C=NCCN1CCOCC1	DPPH radical scavenging	–	240 µM	–	inhibition	74.9%
Cc1cc2c(cc1C1(c3ncc(C(=O)O)cn3)CC1)C(C)(C)CCC2(C)C	RNA sequencing, item: Mpeg1	rat, brain	dose not given, 24 h	relative to: vehicle	log2 fold change	0.17
CSc1nn(-c2ccccc2)c(NC(=O)/C(C#N)=C(/Nc2ccc(C)cc2)Nc2c(C)n(C)n(-c3ccccc3)c2=O)c1C#N	real-time PCR, item: COX-1	mouse, formalin test, paw tissue	dose not given, unit not given	relative to: control	mRNA level	1.99 ± 0.18
O=C(/C=C/c1ccc(O)c(O)c1)OCCCC[P+](c1ccccc1)(c1ccccc1)c1ccccc1	immunoblotting	rat liver mitochondria	10 µM, 15 min	relative to: untreated	cytochrome c release	~2.5 fold
C=C(c1ccc(C(=O)O)c(F)c1)c1cc2c(cc1C)C(C)(C)C=CC2(C)C	RNA sequencing, item: Mta2	rat, brain	dose not given, 24 h	relative to: vehicle	log2 fold change	-1.45
COc1cc(CN2CCN(c3ccc(F)cc3)CC2)c2cc3[n+](cc2c1O)CCc1cc2c(cc1-3)OCO2	ferric reducing power, FRAP	–	10 µg/mL, 30 min	higher is greater reducing power	FRAP absorbance	0.002 ± 1.05 a.u.
COc1c2c(cc3oc(COC4OC(CO)C(O)C(O)C4O)cc(=O)c13)OC(C(C)(C)O)C2 (stereo not drawn)	analgesia	mouse	oral, 1 mg/kg, 2 h	–	hot plate latency	10.6 ± 1.38 s
N[C@@H](CC(=O)O)C(=O)N1CCC[C@H]1C(=O)NCC(=O)NCC(=O)O	diketopiperazine formation, transition state theory	1-propanol	concentration not given, 70, 80, 90 °C, 0.5% acetic acid	–	enthalpy of activation	69 ± 1 kJ/mol
CC=CC(CC(=O)O)c1ccc(OCc2ccc(-c3cc(OC)ccc3F)cc2)cc1 (stereo not drawn)	item: total GLP-1	colonic crypt cultures, Gpr40 knockout, mouse, ex vivo	1 µM, 2 h	relative to: vehicle	GLP-1 release	1.4 ± 0.14 fold change
CC(C)C[C@H](N)C(=O)N1CCC[C@H]1C(=O)NCC(=O)NCC(=O)O	diketopiperazine formation, transition state theory	1-propanol	70, 80, 90 °C, 0.5% acetic acid	–	ΔS‡ at 298.15 K	14 ± 1 J/(mol·K)
O=C(CN1CCC(O)CC1)Nc1nc(-c2ccccc2)cs1	paw oedema	mouse	intraperitoneal, 200 µmol/kg	–	inhibition in vivo	62.6%
Cc1nc(C)c(C=[N+]([O-])C(C)(C)C)nc1C	Western blot, item: PGC-1α	mouse, MPTP model, substantia nigra nuclei	90 mg/kg	–	protein level increase	50.6%
O=c1cc(-c2ccc(O)c(O)c2)oc2cc(O[C@@H]3O[C@H](CO)[C@@H](O)[C@H](O)[C@H]3O)cc(O)c12	–	–	200 µg/mL, with: sodium nitroprusside	–	nitric oxide scavenging	67.7 ± 0.02%

Excerpt of the above:
Structure (SMILES)	assay	system	conditions	how to read	quantity	value
O=C(CN1CCC(O)CC1)Nc1nc(-c2ccccc2)cs1	paw oedema	mouse	intraperitoneal, 200 µmol/kg	–	inhibition in vivo	62.6%
Cc1csc(NC(=O)CN2CCC(O)CC2)n1	Fe3+/ascorbic acid system	–	concentration not given, 30 min, 37 °C, with: DMSO 33 mM	–	hydroxyl radical scavenging	100%
Oc1ccc2nc1CNCCNCCNC2	pH-potentiometric titration	–	298 K, I 0.15 M NaCl, with: Ca2+	–	log beta MHL	13
Cc1ccc(C(=O)Nc2ccc(CP(=O)(O)O)cc2CP(=O)(O)O)cc1NC(=O)c1cccc(NC(=O)Nc2cccc(C(=O)Nc3cc(C(=O)Nc4ccc(CP(=O)(O)O)cc4CP(=O)(O)O)ccc3C)c2)c1	–	human plasma	329 µM	–	PT	14.7 ± 1.3 s
